Assay results of several laboratories.
Lines come from different studies, so protocols differ. ± marks the error that the study gave. Bridges are numbered along the chain shown (N, C = ends). Where no end group is shown, it is not given here.

Molecule | target or system | assay | system | conditions | quantity | result
O=c1c2ccccc2nc(S)n1Cc1cccnc1 | HepG2.2.15 | cell growth or viability, crystal violet |  | 48 h | IC50 | 46.4 µM
CC1(C)c2ccccc2N(Cc2ccc(C(=O)NO)cc2)C1c1cccnc1 (racemic) | IPF patient basal cells | bronchosphere formation, 3D organoid and MTT |  | 14 days | IC50 | 0.00515 µM
CC1(C)OC2=C(C(=O)C(=O)c3ccccc32)C1Nc1cccc(-c2cn(C[Se]c3ccccc3)nn2)c1 (centres unmarked) | six human cancer cell lines | MTT |  | 72 h, range over cell lines | IC50 | 0.07 to 0.38 µM
N=C(N)NCCC[C@H](NC(=O)[C@H](Cc1c[nH]c2ccccc12)NC(=O)[C@H](CCC(N)=O)NC(=O)[C@H](Cc1c[nH]c2ccccc12)NC(=O)[C@H](CCCNC(=N)N)NC(=O)[C@H](Cc1c[nH]c2ccccc12)NC(=O)[C@H](CCC(N)=O)NC(=O)[C@H](Cc1c[nH]c2ccccc12)NC(=O)[C@H](CCCNC(=N)N)NC(=O)CCCCCN)C(N)=O | HT-29 | cell growth or viability, MTT |  |  | IC50 | 119 µM
COc1cc2cc(c1Cl)N(C)C(=O)C[C@H](OC(=O)[C@H](C)N(C)C(=O)CCS)[C@]1(C)O[C@H]1[C@H](C)[C@@H]1C[C@@](O)(NC(=O)O1)[C@H](OC)/C=C/C=C(\C)C2 | BT-474 | cell growth or viability, ATP luminescence |  |  | IC50 | 0.0239 µM
O=C(Cn1cnc2ccccc2c1=O)Nc1cc(Cl)ccc1O | HEK293 | cell growth or viability, crystal violet |  | 48 h | IC50 | > 100 µM
NC(=O)c1ncn2c(=O)n(CCCl)nnc12 | U87 MGMT-negative | Alamar Blue |  | 7 d | IC50 | 30 µM
N.N.[Cl][Pt][Cl] | A2780 | cell growth or viability, MTT |  |  | IC50 | 1.6 µM
CCC(C)C(OC(C)=O)C(=O)O[C@H]1[C@H](O)[C@@H]2[C@@]3(C)C=CC(=O)C(C)(C)[C@@H]3C[C@@H](OC(=O)C(O)C(C)C)[C@@]2(C)[C@@]23O[C@@H]2C[C@@H](c2ccoc2)[C@]13C (some centres unmarked) | LAPC4 | AR transcriptional activity, antagonist, PSA promoter luciferase |  | 24 h | IC50 | 16.6 µM
C[n+]1ccc(-c2ccc(I)cc2)cc1 | MN9D | cell growth or viability, MTT |  | 16 h | IC50 | 46.6 µM
S=C([S][Au][PH](c1ccccc1)(c1ccccc1)c1ccccc1)n1ncc2ccccc21 | PHA-P stimulated human PBMC | cell growth, MTT |  | 3 d | IC50 | 5.08 ± 2.48 µM
O=c1[nH]cc(F)c(=O)[nH]1 | 293FT | cell viability |  |  | IC50 | ≥ 50 µM
N.N.[Cl][Pt][Cl] | HT-29 | cell viability, MTS |  | 24 h | IC50 | 84.7 ± 1.9 µM
CC(=O)Nc1ccn([C@H]2CS[C@@H](CO)O2)c(=O)n1 | human T-lymphocyte | cell growth or viability |  | 72 h | IC50 | > 250 µM
N.N.[Cl][Pt][Cl] | CH1 | cell viability, MTT |  | 96 h | IC50 | 0.077 ± 0.006 µM
O=S(=O)([O-])[O-].[Cu+2] | Caco-2 monolayers | transepithelial resistance |  | 96 h, repeated dosing | IC50 | 473 µM
N.N.[Cl][Pt][Cl] | PC-3 | cell growth or viability, MTT |  | 48 h | IC50 | 23.5 µM
Cc1sc2c(c1C)C(c1ccc(Cl)cc1)=N[C@@H](CC(=O)OC(C)(C)C)c1nnc(C)n1-2 | Light II cells | GLI reporter gene, inhibitor |  | Hedgehog pathway | IC50 | 0.0026 ± 0.0017 µM
CC(C)[C@@H]1NC(=O)[C@H](C)OC(=O)[C@@H](C(C)C)NC(=O)[C@@H](C(C)C)OC(=O)[C@H](C(C)C)NC(=O)[C@H](C)OC(=O)[C@@H](C(C)C)NC(=O)[C@@H](C(C)C)OC(=O)[C@H](C(C)C)NC(=O)[C@H](C)OC(=O)[C@@H](C(C)C)NC(=O)[C@@H](C(C)C)OC1=O | SHG-44 | cell growth or viability, SRB |  |  | IC50 | 0.021 µM
CC[C@@]1(O)C(=O)OCc2c1cc1n(c2=O)Cc2cc3ccccc3nc2-1 | HUVEC | cell growth or viability, MTT |  | 48 h | IC50 | 0.25 µM
CCCCCCCCCCCCc1ccc(S(=O)(=O)Nc2nncs2)cc1 | BxPC-3 | Ser473 AKT phosphorylation, inhibitor, Western blot, refers to: phospho-Ser473 AKT |  | 4 h | IC50 | 8.6 ± 0.8 µM
N.N.[Cl][Pt][Cl] | NCI-H460 | cell growth or viability, MTT |  | 72 h | IC50 | 2.92 µM
O=C(Cn1cnc2ccccc2c1=O)Nc1ncccc1O | HepG2.2.15 | cell growth or viability, crystal violet |  | 48 h | IC50 | > 100 µM
CC(/C=C/C(C)=C/[C@@H]1Cc2nc(cs2)CCCCC(=O)O[C@@H](C)C/C(C)=C/C=C\C(=O)O1)=C\CN(C)C | primary CLL cells | apoptosis, annexin V/PI staining |  | 24 h, 10% FBS | IC50 | 0.64 ± 0.29 µM
CN(CC[C@H](N)CC(=O)N[C@H]1C=C[C@H](n2ccc(N)nc2=O)O[C@@H]1C(=O)O)C(=N)N | LAPC4 | AR transcriptional activity, antagonist, PSA promoter luciferase |  | 24 h | IC50 | 10 µM

Molecule | target or system | assay | system | conditions | quantity | result
COc1ccc2c(c1)[nH]c1c(C)nccc12 | C4-2 | cell growth or viability, MTT |  | 48 h | IC50 | ~14 µM
N.N.[Cl][Pt][Cl] | H460 | cell viability, MTT |  | 4 h, with: cimetidine 3 mmol/L | IC50 | 15.6 ± 9.15 µM
O=C1C=C2C=C[C@@H]3C[C@@]2(O1)[C@H]1CCCCN31 | 293FT | cell viability |  |  | IC50 | > 42 µM
glaucarubolone glucoside | MCF-7 | viability, MTS |  | 24 h | IC50 | 8.65 ± 1.11 µM
C#CC[C@H](NC(=O)[C@H](CO)NC(=O)CNC(=O)[C@H](CCCNC(=N)N)NC(=O)[C@@H](NC(=O)[C@H](CC(C)C)NC(=O)[C@@H]1CCCN1C(=O)[C@H](C)NC(=O)CNC(=O)[C@@H](NC(=O)[C@H](CO)NC(=O)[C@H](CCCNC(=N)N)NC(=O)CNC(=O)[C@H](CO)NC(=O)[C@H](CCCNC(=N)N)NC(=O)[C@H](CC(C)C)NC(=O)[C@H](CCCNC(=N)N)NC(=O)[C@H](CCCN)NC(=O)CNC(=O)[C@@H]1CCCN1C(=O)[C@@H]1CCCN1C(=O)[C@H](C)N)[C@@H](C)O)[C@@H](C)O)C(N)=O | A2780 | cell growth or viability, MTT |  |  | IC50 | > 200 µM
O=C1C(=O)N(Cc2ccc(CN=C=S)cc2)c2c(Br)cc(Br)cc21 | HT-29 | cell growth or viability, MTS |  | 48 h | IC50 | ~1 µM
CC[C@H](C)[C@H](NC(=O)[C@@H](N)Cc1ccccc1)C(=O)NCC(=O)N[C@H](C(=O)N[C@@H](CC(C)C)C(=O)N[C@H](C(=O)N1CCC[C@H]1C(=O)N[C@@H](CC(C)C)C(=O)N[C@@H](C)C(=O)N[C@@H](CC(C)C)C(=O)NCC(=O)N[C@@H](C)C(=O)N[C@@H](CC(C)C)C(=O)N[C@H](C(=O)N[C@@H](CCCCN)C(=O)N[C@@H](CC(C)C)C(=O)N[C@@H](Cc1ccccc1)C(=O)N[C@@H](CCCCN)C(N)=O)[C@@H](C)O)[C@@H](C)CC)[C@@H](C)O | CCRF-CEM | cell growth or viability, CCK-8 |  | 24 h | IC50 | 9.31 µM
salinomycin 20-ethyl carbonate sodium | JIMT-1 | MTT |  | 72 h, 3D PCL culture, normoxia | IC50 | 0.271 ± 0.0522 µM
CCCCc1oc2ccccc2c1C(=O)c1cc(I)c(OCCN(CC)CC)c(I)c1 | rabbit alveolar macrophages | surfactant protein A degradation |  | 1 h | IC50 | 13.4 ± 2.1 µM
FFPKVAGVAAKVLKKFCTISKKC (disulfide 17-23 (inferred)) (disulfide) | HaCaT | cell viability, MTT |  |  | IC50 | 128 µM
Nc1ccn([C@@H]2CS[C@H](CO)O2)c(=O)n1 | human T-lymphocyte | cell growth or viability |  | 72 h | IC50 | > 250 µM
CSCC[C@H](NC(=O)[C@H](CCC(N)=O)NC(=O)[C@H](CCC(N)=O)NC(=O)[C@H](CO)NC(=O)[C@H](CCCNC(=N)N)NC(=O)[C@H](CCC(=O)O)NC(=O)CNC(=O)[C@H](CC(C)C)NC(=O)CNC(=O)[C@H](CC(N)=O)NC(=O)[C@@H](NC(=O)[C@@H](N)CCC(N)=O)C(C)C)C(=O)O | SiHa | CCK-8 |  | 36 h | IC50 | 208 ± 13.5 µg/mL
C=C(CC[C@@H](C)[C@H]1CC[C@H]2C3=C(C(=O)C[C@]12C)[C@@]1(C)CCC(=O)[C@@H](C)[C@@H]1CC3=O)C(C)C(=O)O (some centres unmarked) | BV-2 | NO release, inhibitor, Griess |  | 24 h, LPS-stimulated | IC50 | < 5 µM
O=C(Cn1cnc2ccccc2c1=O)Nc1nccs1 | HepG2.2.15 | cell growth or viability, crystal violet |  | 48 h | IC50 | 79.5 µM
CC1(C)OC2=C(C(=O)c3ccccc3C2=O)C1Nc1cccc(-c2cn(C[Se]c3ccccc3)nn2)c1 (centres unmarked) | six human cancer cell lines | MTT |  | 72 h, range over cell lines | IC50 | 0.68 to 1.71 µM
[Cl][Cd][Cl] | ReNcell VM, differentiated, astrocytic | cell viability, live/dead staining | 3D alginate microarray | 24 h exposure then 48 h recovery, 6 days without growth factors | IC50 | 10.2 µM
O=P12CN3CN(CN(C3)C1)C2 | Jurkat | cytotoxicity, MTT |  | 24 h, 1% DMSO | IC50 | > 500 µM
O=C1[O][Pt]2([NH][C@@H]3CCCC[C@H]3[NH]2)[O]C1=O | CCD-18Co | cell growth or viability, MTT |  | 72 h | IC50 | 31.3 µM
CN[C@@](C)(C[18F])C(=O)O |  |  | SCID mouse MDA-MB-468 xenograft, spleen | 15 min, post injection | tissue uptake | 12 ± 1.7 %ID/g
[Cl][Cd][Cl] | Caco-2 monolayers | transepithelial resistance |  | 96 h, repeated dosing | IC50 | 22 µM
CC(C)c1ccc2c(c1)CC[C@H]1[C@](C)(CN)CCC[C@]21C | C8161.Cl 9 melanoma | cell viability, MTS |  | 72 h | IC50 | 4.35 ± 0.34 µM
NC1(c2ccc(-c3nc4ccn5c(=O)[nH]nc5c4cc3-c3ccccc3)cc2)CCC1 | MDA-MB-231 spheroids, LINK-A PIP3-BM+/+ | spheroid growth, 3D spheroid viability |  |  | IC50 | ~11.7 µM
CN(C)c1cc2c(Nc3ccc4c(cnn4Cc4ccccc4)c3)ncnc2cn1 | H2030 (EGFR wild type) | cell viability, Alamar Blue |  | 120 h | IC50 | > 10 µM
O=C(CCCN1CCC2(CC1)C(=O)NCN2c1ccccc1)N(CC1CCCCC1)c1ccccc1 | primary pancreatic cancer KRAS G12D | cell growth |  | 72 h | IC50 | 6.4 to 7.6 µM
CC(C)=CCc1c(O)cc2oc3cc(O)c(O)c(CC=C(C)C)c3c(=O)c2c1O | H1L6.1c3 | cell viability, MTT |  |  | IC50 | 65 ± 3.5 µM

Some of these lines once more:
Molecule | target or system | assay | system | conditions | quantity | result
NC(=O)c1ncn2c(=O)n(CCCl)nnc12 | U87 MGMT-negative | Alamar Blue |  | 7 d | IC50 | 30 µM
O=C(Cn1cnc2ccccc2c1=O)Nc1cc(Cl)ccc1O | HEK293 | cell growth or viability, crystal violet |  | 48 h | IC50 | > 100 µM
[Cl][Cd][Cl] | ReNcell VM, differentiated, astrocytic | cell viability, live/dead staining | 3D alginate microarray | 24 h exposure then 48 h recovery, 6 days without growth factors | IC50 | 10.2 µM
Cc1sc2c(c1C)C(c1ccc(Cl)cc1)=N[C@@H](CC(=O)OC(C)(C)C)c1nnc(C)n1-2 | Light II cells | GLI reporter gene, inhibitor |  | Hedgehog pathway | IC50 | 0.0026 ± 0.0017 µM
